Measured values from different studies.
Each numbered part is a random draw from the data of one study; scales do not carry over between parts. Substitutions count along the parent as printed.

Sample 1
Target: CCNE1, cyclin fold, Cln2 fusion (human)
Technique: yeast growth competition, sequencing
Medium: yeast
Setting: strong parent motif
Relative to: not given
Direction: higher = stronger binding
Measurement: normalised enrichment score
Starting sequence: BRCA2 docking peptide (human); PSIKRNLLNEFDR; partner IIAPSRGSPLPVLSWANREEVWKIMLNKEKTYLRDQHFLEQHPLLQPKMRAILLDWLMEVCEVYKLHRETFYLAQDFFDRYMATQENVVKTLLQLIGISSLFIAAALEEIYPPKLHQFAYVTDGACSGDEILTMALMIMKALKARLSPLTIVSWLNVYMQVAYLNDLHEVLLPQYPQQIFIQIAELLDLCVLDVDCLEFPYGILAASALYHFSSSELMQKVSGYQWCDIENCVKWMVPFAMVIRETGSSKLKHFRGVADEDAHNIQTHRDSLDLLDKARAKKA
PSIKVNLLNEFDR [R5V]: 0.808
CSIKRNLLNEFDR [P1C]: 1.93
PSIKRNLLNGFDR [E10G]: 0.75
PSIKRNLLNEFFR [D12F]: 1.7
PSIKRNLLNEADR [F11A]: 0.981

Sample 2
Target: Phosphate system positive regulatory protein PHO4, full length, GST-tagged (PHO4, Saccharomyces cerevisiae, UniProt P07270, residues 1-312)
Technique: competition protein-binding microarray
Form: double-stranded DNA, one strand shown
Medium: in vitro
Tested at: 2 µM
Setting: whole 60-bp probe, lowest competitor level
Together with: Cbf1 competitor, 0.05 µM
Direction: higher = stronger binding
Measurement: fluorescence intensity
Target sequence (chain): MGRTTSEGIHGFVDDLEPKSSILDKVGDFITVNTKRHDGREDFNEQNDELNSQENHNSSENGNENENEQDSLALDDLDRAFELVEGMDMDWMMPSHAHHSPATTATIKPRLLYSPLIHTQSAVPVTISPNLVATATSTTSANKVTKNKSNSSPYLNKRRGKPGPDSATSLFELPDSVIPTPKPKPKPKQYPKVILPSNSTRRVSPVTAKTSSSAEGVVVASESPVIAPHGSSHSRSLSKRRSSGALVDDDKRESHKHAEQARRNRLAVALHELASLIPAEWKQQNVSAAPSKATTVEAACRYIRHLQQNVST
CTCGAATCGAAAACAAACGTGGCCGTTGGTCCATCAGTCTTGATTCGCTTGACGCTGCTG: 12500 a.u.
CTAACGAAGGTTTGAAATGTGGGTGACAAGCCAAGTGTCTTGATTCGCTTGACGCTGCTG: 5490 a.u.
CTTTCCCGATCTTTTCACGTGCCATTAGCACATTTGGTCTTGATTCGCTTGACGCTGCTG: 15900 a.u.
ATGCTTTAGTCTGGACTCGTGATGGTTCAACGATTTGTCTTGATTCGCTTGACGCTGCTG: 6990 a.u.
AGACGCTAGACCTGCCATGTGGAGATCCGGGGCGGAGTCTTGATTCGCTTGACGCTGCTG: 8470 a.u.
GTCTTGTCTCATTGTCACTTGACTTTCCCCACTTCAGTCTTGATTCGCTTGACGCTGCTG: 3640 a.u.
TAATGCGCTTGCATGTATGTGCGTACATGTATGTGTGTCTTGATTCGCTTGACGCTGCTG: 7820 a.u.

Sample 3
Target: Histone acetyltransferase KAT6A, both winged helices, GST fusion (KAT6A, Homo sapiens, UniProt Q92794, residues 1-181)
Technique: protein binding microarray
Form: double-stranded DNA, one strand shown
Medium: in vitro
Tested at: not given
Setting: 8-mer, flanks averaged, mean of 2 arrays, mostly near background
Relative to: not given
Direction: higher = stronger binding
Measurement: E-score
Residues (chain): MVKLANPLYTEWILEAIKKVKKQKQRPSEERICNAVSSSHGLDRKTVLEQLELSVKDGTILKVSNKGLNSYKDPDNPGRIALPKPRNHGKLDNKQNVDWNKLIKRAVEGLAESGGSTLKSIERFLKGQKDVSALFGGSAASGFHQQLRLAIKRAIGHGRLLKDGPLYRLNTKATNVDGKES
AGCATTTA: -0.108
AAAGAACT: -0.0491
AGAAGGCA: -0.238
AGCACTTG: -0.172
AGTATCCA: -0.17
CAAGTCAA: -0.188
CCATCGTA: -0.00173
ACTTCGGA: -0.0148

Other studies, line by line
PhoQ, residues 284 288 289 292 302 303 SSLVEF
fold induction (PhoP, residues 12 14 15 18 19 LWHCS (Escherichia coli, UniProt P23836); Sort-seq, refers to: YFP reporter; E. coli; PhoQ-PhoP variant library, together with: 10 µM Mg2+; relative to: high Mg2+ state, higher = stronger signaling): 3.79

Repeated from above (sample 1):
PSIKRNLLNEFFR [D12F]: 1.7
